Published values from different studies.
Several values in a cell are separate wells, animals, samples, runs or records. Numbers after ± are the reported error.

Cc1cc(N)ccc1-c1cc2c(N3CCC[C@H](C(=O)NCc4ccc(OC(F)(F)F)cc4)C3)ncnc2[nH]1  inhibition (NCI-H2228; cell growth or viability, MTT; 0.2 µg/mL, 72 h): 68.2%
COc1cc(OC)c(F)c(/C=C/c2cnc3ccn(S(=O)(=O)c4cn(CCF)cn4)c3n2)c1F  inhibition (SNU-16 (FGFR2-amplified); cell proliferation; 111.1 nM): 57.2% and 59.4%
Cc1cc(NC2CCN(C)CC2)ccc1-c1cc2c(N3CCC[C@H](C(=O)N[C@H](C)c4ccccc4)C3)ncnc2[nH]1  inhibition (NCI-H2228; cell growth or viability, MTT; 5 µg/mL, 72 h): 95.2%
COc1ccccc1-c1ccncc1C(=O)Nc1nnc(OCc2ccc(Cl)cc2)s1  colony survival (MDA-MB-436 BRCA1-mutant; 6 µM, mean of 3 replicates; baseline: untreated): 43.4%
COC1=C2CC(C)CC(OC)C(O)C(C)C=C(C)C(OC(N)=O)C(OC)C=CC=C(C)C(=O)NC(=CC1=O)C2=O (stereo not shown)  log fold change (Rh30; ChIP-seq, item: H3K36me3 peak; concentration not given, EIF3D intron chr22:36905200-36926599; baseline: untreated control): -0.506
CN1CCCNC(=O)c2cccc(c2)C(=O)NCCCN(C)CCCNc2cccc3c2C(=O)c2cccc(c2C3=O)NCCC1  log2 fold change (SAS; RNA-seq, item: NCBP2-AS2 mRNA; 1 µM, 6 h; baseline: untreated cells): -0.529
C=CS(=O)(=O)Oc1ccc(OC)c(-c2c[nH]c3ncc(-c4cncc(C(=O)N(C)C)c4)cc23)c1  GI50 (Ba/F3 BCR-ABL T315I; cell proliferation; 72 h): 0.729 ± 0.219 µM
CC(C)c1ccc(N(C)c2ccc3c(c2)OCC[C@H]3CNc2cnccc2C(=O)O)cc1  IC50 (NCI-H647; cell growth or viability, ATP luminescence; 7 days): 0.00984 µM
Cc1ncsc1-c1ccc(C(C)NC(=O)C2CC(O)CN2C(=O)C(NC(=O)CCCCCCCCCCN2CCCC(Nc3ncc(Cl)c(Nc4ccccc4S(=O)(=O)C(C)C)n3)C2)C(C)(C)C)cc1 (stereo not shown)  log2 fold change (22Rv1; RNA-seq, item: MIS12 mRNA; concentration not given; baseline: DMSO): -1.14
O=C(NCc1ccc(OC(F)(F)F)cc1)[C@H]1CCCN(c2ncnc3[nH]c(-c4ccc(N5CCOCC5)cc4)cc23)C1  inhibition (NCI-H2228; cell growth or viability, MTT; 0.04 µg/mL, 72 h): 62.3%
[BH3-][P+]1(c2ccccc2)CCCCC1  reduction of cell number (SW480; trypan blue; IC50, 72 h; baseline: untreated): 45 to 53%
COCCCCCNc1nc(NCCCCCCN(C)C)c2cc(NC(=O)/C=C/CN(C)C)ccc2n1  viability (MCF7; CellTiter-Glo; 0.09766 µM, 72 h, unit not given; baseline: DMSO-treated cells): 0.971 and 0.957 and 1.07
Cc1cc(Cl)cc(-c2ccnc3cc(CN4C(=O)C5C(C4=O)C5(C)C)sc23)c1C[C@@H]1CNCCO1 (stereo partly shown)  G2/M phase cells (CHP-212 parental; PI flow cytometry; 0.1 µM, 24 h): 19.9%
CO[C@@H]1[C@@H](OC(N)=O)[C@@H](O)[C@H](Oc2ccc3c(O)c(NC(=O)c4ccc(O)c(CC=C(C)C)c4)c(=O)oc3c2C)OC1(C)C  colony survival (HCT-116 BRCA2 wild-type; 250 µM, replicate B; baseline: untreated): 4.77%
CNS(=O)(=O)Nc1nccc(Cc2c(C)c3ccc(Oc4ncccc4F)cc3oc2=O)c1F  IC50 (RT-112; cell viability; 7 days): 0.329 µM
O=C(Nc1nnc2c1c(-c1ccc(Cl)cc1)nc1sc(=Cc3ccco3)c(=O)n12)c1ccccc1 (mixture of isomers)  cell growth (SNB-75; SRB; 10 µM, NCI60 single-dose screen; baseline: untreated): 50.4%
COC(=O)c1cc(NC2=NC(=O)C(=Cc3ccc(C)cc3)S2)ccc1OC(C)=O  metabolite level (MCF7; GC-MS, item: Adenosine; 1 µM; baseline: DMSO): 0.01 fold change
CN(C)c1ccc(-n2cc(COC(=O)[C@]3(C)C=C(C(=O)OC(C)(C)C)C(=O)CC3)nn2)cc1  pRSK/tubulin ratio (HeLa; quantitative western blot; concentration not given, 30 (unit not given), with: EGF): 0.153
CCCC[C@H](NC(=O)[C@H](CC(C)C)NC(=O)[C@H](CO)NC(=O)[C@H](CO)NC(=O)[C@H](C)NC(=O)[C@H](CO)NC(=O)[C@H](C)N)C(=O)N[C@@H](CC(=O)O)C(=O)N[C@@H](CCCCN)C(=O)N[C@@H](CCC(=O)O)C(=O)N[C@@H](C)C(=O)N[C@H](C(=O)N[C@@H](Cc1ccc(O)cc1)C(=O)N[C@@H](Cc1ccccc1)C(=O)N[C@@H](C)C(=O)N[C@@H](Cc1c[nH]cn1)C(=O)N[C@@H](CC(C)C)C(=O)N[C@@H](CC(=O)O)C(=O)N[C@H](C(=O)N[C@H](C(=O)N[C@@H](Cc1c[nH]c2ccccc12)C(=O)O)[C@@H](C)CC)[C@@H](C)CC)C(C)C  Emax (COS-7 ETBR-GFP; calcium flux, agonist; ETBR/ETAR ratio 1:2): 61 ± 6%
O=C(NCc1ccc(OC(F)(F)F)cc1)[C@H]1CCCN(c2ncnc3[nH]c(-c4cccs4)cc23)C1  inhibition (NCI-H2228; cell growth or viability, MTT; 1 µg/mL, 72 h): 70.5%
CCCCCCCC(=O)Oc1c(C)c(OC)c2c(c1C)OC(=O)[C@@H](CCCCCC)[C@]2(O)/C=C/c1ccccc1 (racemic)  selectivity index (SH-SY5Y; SRB; baseline: normal over SH-SY5Y IC50): 1.72
Cc1cc(NC2CCN(C)CC2)ccc1-c1cc2c(N3CCC[C@H](C(=O)Nc4ccc(C(F)(F)F)cc4)C3)ncnc2[nH]1  inhibition (NCI-H2228; cell growth or viability, MTT; 0.2 µg/mL, 72 h): 70.2%
COC(=O)c1cc(NC2=NC(=O)C(=Cc3ccc(N(C)C)cc3)S2)ccc1OC(C)=O  metabolite level (MCF7; GC-MS, item: Hydroxylamine; 1 µM; baseline: DMSO): 0.27 fold change
O=C(CSc1cccc[n+]1[O-])c1ccccc1Br  EC50 (LDR; silenced CMV-GFP reporter derepression, qHTS): 3.16 µM
C=CC(=O)N1[C@H](c2ccc3c(c2)OCO3)c2[nH]c3ccccc3c2C[C@H]1C(=O)N1CCOCC1  altered sites with FOXA1 binding (22Rv1 SF3B1 C1111S; ATAC-seq; concentration not given): > 70%
O=C(N1CCCC1)n1cc(-c2ccc(-c3ccccc3)cc2)nn1  SILAC ratio (mouse T cells; N-terminal labeling proteomics, item: S100a4 N-terminal peptide; 0.001 µM, 6 h; baseline: DMSO): 1.08 and 1.05 and 0.96 and 1.11 and 0.91
Cc1cc(NC2CCN(C)CC2)ccc1-c1cc2c(N3CCC[C@H](C(=O)N4CCCCC4)C3)ncnc2[nH]1  inhibition (NCI-H2228; cell growth or viability, MTT; 0.008 µg/mL, 72 h): 3.4%
COCC/N=C(\S)N/N=C(\C)c1ccccc1O  efficacy (LDR; silenced CMV-GFP reporter derepression, qHTS): 65%
Cc1cc(NC2CCN(C)CC2)ccc1-c1cc2c(N3CCC[C@H](C(=O)NCc4ccc(OC(F)(F)F)cc4)C3)ncnc2[nH]1  inhibition (NCI-H2228; cell growth or viability, MTT; 1 µg/mL, 72 h): 95.2%
O=C(C[Se]C(=O)C12CC3CC(CC(C3)C1)C2)Nc1cccc(C(F)(F)F)c1  GI50 (NCI60 renal subpanel; cell growth, inhibitor; five-dose): 3.48 µM
Cn1ncc2cc(-c3cncc(Cl)c3N3CCC4(CCNC4=O)CC3)ccc21  log2 fold change (LS174T; gene expression, microarray, item: SMPD1 mRNA; concentration not given, 4 h; baseline: untreated cells): -1.38
N#Cc1cccc(/C=C/C(=O)c2ccc(O)cc2)c1  fold change (U-87 MG; item: DUS3L; concentration not given; baseline: untreated): 0.05
O=C(C[Se]C(=O)c1ccc2ccccc2n1)Nc1cccc(C(F)(F)F)c1  GI50 (NCI60 NSCLC subpanel; NCI60 five-dose screen): 1.92 µM
COc1ccccc1-c1ccncc1C(=O)Nc1ccc(OCc2ccc(Cl)cc2)nn1  colony survival (DLD-1 BRCA2-/-; 5 µM; baseline: untreated): 99.6% and 96.6% and 102%
O=C(C[Se]C(=O)c1ccccc1Nc1ccccc1)Nc1cccc(C(F)(F)F)c1  GI50 (NCI60 renal subpanel; cell growth, inhibitor; five-dose): 1.83 µM
Oc1c(/N=N/c2ccccn2)ccc2ccccc12  Emax (LDR; silenced CMV-GFP reporter derepression, qHTS): 124%
CCN(C(=O)c1cc(F)ccc1Oc1nncnc1N1CCC2(C1)CN([C@H](CCCN(C)CCOC)C(C)C)C2)C(C)C  GI50 (SU-DHL10; cell growth or viability; 7 days): > 10 µM
COc1ccc2c(c1)c(CC(=O)[Se]CC(=O)Nc1cccc(C(F)(F)F)c1)c(C)n2C(=O)c1ccc(Cl)cc1  mean growth percent (NCI60 renal subpanel; cell growth; 10 µM, 48 h, one-dose): -86.6%
CCN(CC)CC(=O)Nc1cccc(-n2cc(-c3ccc4ccc(-c5cn(-c6cccc(NC(=O)CN(CC)CC)c6)nn5)cc4c3)nn2)c1  fold regulation (RCC4; PCR angiogenesis array, item: EFNA1; 5 x IC50, 2 h, normoxia; baseline: untreated): 1.13
CCCCCCCCCCCCCCCC(=O)OCC(CSC[C@H](N)C(=O)N[C@@H](CO)C(=O)N[C@@H](CCCCN)C(=O)N[C@@H](CCCCN)C(=O)N[C@@H](CCCCN)C(=O)N[C@@H](CCCCN)C(=O)NCCCCCC(=O)N[C@@H](CCCCN)C(=O)N[C@@H](CC(C)C)C(=O)N[C@H](C(=O)N[C@@H](Cc1ccccc1)C(=O)N[C@@H](Cc1ccccc1)C(=O)N[C@@H](Cc1ccc2ccccc2c1)C(=O)O)C(C)C)OC(=O)CCCCCCCCCCCCCCC (stereo partly shown)  protein level (BV-2; Western blot, item: MARCO; concentration not given, unit not given; baseline: control): 4.48 and 3.29
Cn1ncc(-c2ccc3c(=O)[nH]nc(CN)c3c2)c1-c1c(F)c(Cl)cc(OC2CC2)c1C#N  IC50 (CAPAN-1; cell viability, inhibitor, CellTiter-Glo; 120 h, baseline-subtracted): 0.04 µM
Cc1ccc(C(C)C)c(OCc2ccc(C(=O)N/N=C/c3cccc(O)c3O)cc2)c1  efficacy (LDR; silenced CMV-GFP reporter derepression, qHTS): 35%
O=C(NCc1ccc(OC(F)(F)F)cc1)[C@H]1CCCN(c2ncnc3[nH]c(-c4ccc(C(F)(F)F)cc4)cc23)C1  inhibition (NCI-H2228; cell growth or viability, MTT; 5 µg/mL, 72 h): 44.9%
